Measurements pooled from the literature.
Each line is one published result; not all experiments were run side by side. ± marks the error that the study gave.
Method: steady-state kinetics
B1: enzyme W1065M (Limosilactobacillus reuteri, UniProt Q5SBN3); chain INGQQYYIDPTTGQPRKNFLLQNGNDWIYFDKDTGAGTNALKLQFDKGTISADEQYRRGNEAYSYDDKSIENVNGYLTADTWYRPKQILKDGTTWTDSKETDMRPILMVWWPNTVTQAYYLNYMKQYGNLLPASLPSFSTDADSAELNHYSELVQQNIEKRISETGSTDWLRTLMHEFVTKNSMWNKDSENVDYGGLQLQGGFLKYVNSDLTKYANSDWRLMNRTATNIDGKNYGGAEFLLANDIDNSNPVVQAEELNWLYYLMNFGTITGNNPEANFDGIRVDAVDNVDVDLLSIARDYFNAAYNMEQSDASANKHINILEDMGWDDPAYVNKIGNPQLTMDDRLRNAIMDTLSGAPDKNQALNKLITQSLVNRANDNTENAVIPSYNFVRAHDSNAQDQIRQAIQAATGKPYGEFNLDDEKKGMEAYINDQNSTNKKWNLYNMPSAYTILLTNKDSVPRVYYGDLYQDGGQYMEHKTRYFDTITNLLKTRVKYVAGGQTMSVDKNGILTNVRFGKGAMNATDTGTDETRTEGIGVVISNNTNLKLNDGESVVLHMGAAHKNQKYRAVILTTEDGVKNYTNDTDAPVAYTDANGDLHFTNTNLDGQQYTAVRGYANPDVTGYLAVWVPAGAADDQDARTAPSDEAHTTKTAYRSNAALDSNVIYEGFSNFIYWPTTESERTNVRIAQNADLFKSWGITTFELAPQYNSSKDGTFLDSIIDNGYAFTDRYDLGMSTPNKYGSDEDLRNALQALHKAGLQAIADWVPDQIYNLPGKEAVTVTRSDDHGTTWEVSPIKNVVYITNTIGGGEYQKKYGGEFLDTLQKEYPQLFSQVYPVTQTTIDPSVKIKEWSAKYFNGTNILHRGAGYVLRSNDGKYYNLGTSTQQFLPSQLSVQDNEGYGFVKEGNNYHYYDENKQMVKDAFIQDSVGNWYYFDKNGNMVANQSPVEISSNGASGTYLFLNNGTSFRSGLVKTDAGTYYYDGDGRMVRNQTVSDGAMTYVLDENGKLVSESFDSSATEAHPLKPGDLNGQK
B2: STH1425 H227V (Symbiobacterium thermophilum, UniProt Q67PI3); chain MDKLRVAVVGYGNVGRYALEAVQAAPDMELVGVVRRKVLAATPPELTGVRVVTDISQLEGVQGALLCVPTRSVPEYAEAMLRRGIHTVDSYDIHGDLADLRRRLDPVAREHGAAAVISAGWDPGTDSIIRALLEFMAPKGITYTNFGPGMSMGHSVAVKAIPGVRDALSMTIPAGMGVHKRAVYVELEPGADFAEVERAIKTDPYFVRDETRVTQVESVSALMDVGVGVVMERKGVSGATHNQLFRFEMRINNPALTAQVMVAALRAAARQKPGCYTMIEIPVIDYLPGDREAWIRKLV
B3: nitrilase Y142F (Rhodococcus rhodochrous, UniProt A4LA85); chain MVEYTNTFKVAAVQAQPVWFDAAKTVDKTVSIIAEAARNGCELVAFPEVFIPGYPYHIWVDSPLAGMAKFAVRYHENSLTMDSPHVQRLLDAARDHNIAVVVGISERDGGSLYMTQLIIDADGQLVARRRKLKPTHVERSVFGEGNGSDISVYDMPFARLGALNCWEHFQTLTKYAMYSMHEQVHVASWPGMSLYQPEVPAFGVDAQLTATRMYALEGQTFVVCTTQVVTPEAHEFFCENEEQRKLIGRGGGFARIIGPDGRDLATPLAEDEEGILYADIDLSAITLAKQAADPVGHYSRPDVLSLNFNQRRTTPVNTPLSTIHATHTFVPQFGALDGVRELNGADEQRALPSTHSDETDRATASI
B4: protein L361A (Streptomyces toyocaensis, UniProt Q8KLK7); chain MTTVLPPLEDTDGLWAALTEAAASVEKLLATLPEHGARSSAERAEIAAAHDAARALRVRFLDTHADAVYDRLTDHRRVHLRLAELVEAAATAFPGLVPTQQQLAVERSLPQAAKEGHEIDQGIFLRAVLRSPLAGPHLLDAMLRPTPRALELLPEFVRTGEVEMEAVHLERRDGVARLTMCRDDRLNAEDGQQVDDMETAVDLALLDPGVRVGLLRGGVMSHPRYRGKRVFSAGINLKYLSQGGISLVDFLMRRELGYIHKLVRGVLTNDDRPGWWHSPRIEKPWVAAVDGFAIGGGAQLLLVFDRVLASSDAYFSLPAAKEGIIPGAANLRLGRFAGPRVSRQVILEGRRIWAKEPEARALVDEVVEPDELDAAIERSLTRLDGDAVLANRRMLNLADESPDGFRAYMAEFALMQALRLYGHDVIDKVGRFGGRPPA
B5: enzyme N249W (Thermobifida fusca, UniProt Q47RK4); chain MTDVYILDAVRTPFGRYGGALSGIRPDDLAAHVLRALAERSPGLDPAAVDDVFFGDANGAGEDNRNVARMAALLAGWPTSVPGVTLNRLCGSGMESVIAANRAIAVGDASLAVAGGVESMSRAPWVLPKPAQGFPTGHETLYSTTLGWRMVNPAMPEQWTVSLGESTEQVAATYGISRAEQDAFALRSHERAARAWAEGVFDAEITQIPGAELERDESIRETSAEKLAALKPAFRPDGTITAGNASPLWDGAAALLIGDAAAAERVGREPLARIVSRGVAAVDPDVFGIGPVQAAEIALRRAGIGWDDLSVVELNEAFAAQSLACLKLWPDLDPEIVNPNGGAIAIGHPLGASGARIVGTLAHELHRRGGGWGLAAICIGVGQGLAVVLHR
B6: protein N172D (Rhodopseudomonas palustris, UniProt Q6N3R9); chain MSNVRVLATDLAFPEGPVVMPDGSVVLVEIRAQQLTRVWPDGRKEVVAKVPGGPNGAALGPDGKMYICNNGGFGWFPSRGTMMPGAPAPHEYIGGSIQRVDLQSGEVETLFDKCGEHPLKGPNDLVFDKHGGLWFTDLGKRRARDMDVGAAYYIKPGMTEITEQVFGTLPLDGIGLSPDEATMYAAETPTGRLWAFDLSGPGEVKPRDVIYRGEKGKPICGLGGYQMFDSLAVEASGNVCVATLVSGCISVIAPDGTLVEQVPTGDRVTTNIAFGGPDLKTAYITLSGKGELIAMDWSRPGLPLNFLNK

Substance = B1 (enzyme W1065M); substrate = OC[C@H]1O[C@@](CO)(O[C@H]2O[C@H](CO)[C@@H](O)[C@H](O)[C@H]2O)[C@@H](O)[C@@H]1O; pH = pH 4.7; temperature = 37 °C; kcat = 7.5 ± 0.5 s⁻¹
Substance = B2 (STH1425 H227V); substrate = O=C(O)C(=O)Cc1ccccc1; pH = pH 9; temperature = 30 °C; notes = reductive amination; together with = NH4Cl 200 mM, NADPH 0.5 mM; kcat = 1.13 ± 0.06 s⁻¹
Substance = azu N30H/N36H/Q34H (Pseudomonas aeruginosa); substrate = O=NO; pH = pH 6.35; kcat = 0.00933 s⁻¹
Substance = B3 (nitrilase Y142F); substrate = Cc1cccc(C#N)c1; pH = pH 7.5; temperature = 25 °C; kcat = 0.000142 ± 3.33e-06 s⁻¹
Substance = B4 (protein L361A); substrate = CC(C)(COP(=O)(O)OP(=O)(O)OC[C@H]1O[C@@H](n2cnc3c(N)ncnc32)[C@H](O)[C@@H]1OP(=O)(O)O)[C@@H](O)C(=O)NCCC(=O)NCCSC(=O)Cc1cc(O)cc(O)c1; pH = pH 7.5; temperature = 24 °C; together with = O2; kcat = 0.18 ± 0.02 s⁻¹
Substance = aacA-aphD (Staphylococcus aureus, UniProt P0A0C1); substrate = CN[C@@H]1[C@@H](O)[C@@H](O[C@@H]2[C@@H](O)[C@H](O[C@H]3OC(CNCCO)=CC[C@H]3N)[C@@H](N)C[C@H]2NC(=O)[C@@H](O)CCN)OC[C@]1(C)O; pH = pH 7.5; temperature = 25 °C; kcat = 0.126 ± 0.004 s⁻¹
Substance = OXA-48 (Klebsiella pneumoniae, UniProt Q6XEC0); substrate = C[C@@H](O)[C@H]1C(=O)N2C(C(=O)O)=C(S[C@@H]3CN[C@H](C(=O)N(C)C)C3)[C@H](C)[C@H]12; pH = pH 7.2; temperature = 30 °C; kcat = 0.11 ± 0.01 s⁻¹
Substance = fcl (Campylobacter jejuni, UniProt Q0P8I6); substrate = Nc1nc2c(ncn2[C@@H]2O[C@H](COP(=O)(O)OP(=O)(O)O[C@H]3O[C@@H]([C@H](O)CO)C(=O)[C@@H](O)[C@@H]3O)[C@@H](O)[C@H]2O)c(=O)[nH]1; pH = pH 7.5; temperature = 30 °C; notes = apparent; kcat = 6.1 ± 0.2 s⁻¹
Substance = B5 (enzyme N249W); substrate = CC(C)(COP(=O)(O)OP(=O)(O)OC[C@H]1O[C@@H](n2cnc3c(N)ncnc32)[C@H](O)[C@@H]1OP(=O)(O)O)[C@@H](O)C(=O)NCCC(=O)NCCSC(=O)CCC(=O)O; pH = pH 7.4; temperature = 37 °C; kcat = 0.0055 ± 5.33e-05 s⁻¹
Substance = B6 (protein N172D); substrate = O=C1CCc2ccccc2O1; pH = pH 8; notes = NaCl 150 mM, no saturation; together with = CaCl2 1 mM; kcat = > 14 s⁻¹

Some of these lines once more:
Substance = aacA-aphD (Staphylococcus aureus, UniProt P0A0C1); substrate = CN[C@@H]1[C@@H](O)[C@@H](O[C@@H]2[C@@H](O)[C@H](O[C@H]3OC(CNCCO)=CC[C@H]3N)[C@@H](N)C[C@H]2NC(=O)[C@@H](O)CCN)OC[C@]1(C)O; pH = pH 7.5; temperature = 25 °C; kcat = 0.126 ± 0.004 s⁻¹
Substance = B2 (STH1425 H227V); substrate = O=C(O)C(=O)Cc1ccccc1; pH = pH 9; temperature = 30 °C; notes = reductive amination; together with = NH4Cl 200 mM, NADPH 0.5 mM; kcat = 1.13 ± 0.06 s⁻¹
